Measurements pooled from the literature.
Each numbered part is a random draw from the data of one study; scales do not carry over between parts.
Chain of UniProt Q13976 (whole entry, looked up): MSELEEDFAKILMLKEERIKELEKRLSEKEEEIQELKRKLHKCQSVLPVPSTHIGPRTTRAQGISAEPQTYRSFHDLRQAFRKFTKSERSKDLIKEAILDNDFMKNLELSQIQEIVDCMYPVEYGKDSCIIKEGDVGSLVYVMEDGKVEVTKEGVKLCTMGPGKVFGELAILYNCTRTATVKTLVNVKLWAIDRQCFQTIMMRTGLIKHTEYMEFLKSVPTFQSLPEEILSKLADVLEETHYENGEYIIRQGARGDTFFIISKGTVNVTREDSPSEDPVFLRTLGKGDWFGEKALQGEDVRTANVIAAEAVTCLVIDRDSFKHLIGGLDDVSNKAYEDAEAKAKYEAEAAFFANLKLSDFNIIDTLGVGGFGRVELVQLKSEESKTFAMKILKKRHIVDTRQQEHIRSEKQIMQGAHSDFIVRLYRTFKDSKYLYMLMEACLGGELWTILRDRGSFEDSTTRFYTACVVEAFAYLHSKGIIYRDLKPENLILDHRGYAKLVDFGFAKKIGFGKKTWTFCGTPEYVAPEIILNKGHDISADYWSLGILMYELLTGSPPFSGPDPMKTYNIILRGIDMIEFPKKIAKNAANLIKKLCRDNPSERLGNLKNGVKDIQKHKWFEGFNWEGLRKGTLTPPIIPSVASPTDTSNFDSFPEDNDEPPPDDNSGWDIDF
Chain of UniProt Q99759 (whole entry, looked up): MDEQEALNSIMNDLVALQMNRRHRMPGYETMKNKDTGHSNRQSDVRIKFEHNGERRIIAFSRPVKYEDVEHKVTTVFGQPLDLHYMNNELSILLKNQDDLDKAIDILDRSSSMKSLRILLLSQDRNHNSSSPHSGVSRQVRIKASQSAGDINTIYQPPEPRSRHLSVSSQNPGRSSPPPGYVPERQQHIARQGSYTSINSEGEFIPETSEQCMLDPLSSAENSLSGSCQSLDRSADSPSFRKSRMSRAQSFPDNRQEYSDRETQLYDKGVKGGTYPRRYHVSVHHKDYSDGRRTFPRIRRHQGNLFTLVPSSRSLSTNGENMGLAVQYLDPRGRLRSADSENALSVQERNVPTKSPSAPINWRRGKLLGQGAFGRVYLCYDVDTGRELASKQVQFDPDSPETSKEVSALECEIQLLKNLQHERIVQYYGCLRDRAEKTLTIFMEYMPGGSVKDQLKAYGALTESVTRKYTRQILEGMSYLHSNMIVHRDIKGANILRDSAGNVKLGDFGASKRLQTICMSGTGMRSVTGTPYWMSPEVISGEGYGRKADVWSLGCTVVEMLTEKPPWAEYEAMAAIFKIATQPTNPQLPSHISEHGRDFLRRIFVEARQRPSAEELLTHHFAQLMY
Chain of UniProt Q38828 (whole entry, looked up): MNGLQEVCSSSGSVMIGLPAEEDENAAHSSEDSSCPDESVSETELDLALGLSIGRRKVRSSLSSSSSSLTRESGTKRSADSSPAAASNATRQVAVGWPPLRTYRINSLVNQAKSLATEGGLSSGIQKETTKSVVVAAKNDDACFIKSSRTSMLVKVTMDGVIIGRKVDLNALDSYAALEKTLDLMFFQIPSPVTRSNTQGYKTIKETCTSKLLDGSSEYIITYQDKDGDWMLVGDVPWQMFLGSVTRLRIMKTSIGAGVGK
Chain of UniProt P51955 (whole entry, looked up): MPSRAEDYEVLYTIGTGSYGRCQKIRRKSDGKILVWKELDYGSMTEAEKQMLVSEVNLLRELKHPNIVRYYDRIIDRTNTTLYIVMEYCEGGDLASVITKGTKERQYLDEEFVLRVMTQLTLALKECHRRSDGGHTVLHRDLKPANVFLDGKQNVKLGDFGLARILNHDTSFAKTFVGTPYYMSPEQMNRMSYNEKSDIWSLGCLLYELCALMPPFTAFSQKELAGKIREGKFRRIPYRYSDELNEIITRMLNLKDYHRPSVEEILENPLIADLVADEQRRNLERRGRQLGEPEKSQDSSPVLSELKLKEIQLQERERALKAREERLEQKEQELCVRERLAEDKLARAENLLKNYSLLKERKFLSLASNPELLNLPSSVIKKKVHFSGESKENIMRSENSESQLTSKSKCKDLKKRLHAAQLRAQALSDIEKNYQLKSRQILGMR
Chain of UniProt Q94JM3 (whole entry, looked up): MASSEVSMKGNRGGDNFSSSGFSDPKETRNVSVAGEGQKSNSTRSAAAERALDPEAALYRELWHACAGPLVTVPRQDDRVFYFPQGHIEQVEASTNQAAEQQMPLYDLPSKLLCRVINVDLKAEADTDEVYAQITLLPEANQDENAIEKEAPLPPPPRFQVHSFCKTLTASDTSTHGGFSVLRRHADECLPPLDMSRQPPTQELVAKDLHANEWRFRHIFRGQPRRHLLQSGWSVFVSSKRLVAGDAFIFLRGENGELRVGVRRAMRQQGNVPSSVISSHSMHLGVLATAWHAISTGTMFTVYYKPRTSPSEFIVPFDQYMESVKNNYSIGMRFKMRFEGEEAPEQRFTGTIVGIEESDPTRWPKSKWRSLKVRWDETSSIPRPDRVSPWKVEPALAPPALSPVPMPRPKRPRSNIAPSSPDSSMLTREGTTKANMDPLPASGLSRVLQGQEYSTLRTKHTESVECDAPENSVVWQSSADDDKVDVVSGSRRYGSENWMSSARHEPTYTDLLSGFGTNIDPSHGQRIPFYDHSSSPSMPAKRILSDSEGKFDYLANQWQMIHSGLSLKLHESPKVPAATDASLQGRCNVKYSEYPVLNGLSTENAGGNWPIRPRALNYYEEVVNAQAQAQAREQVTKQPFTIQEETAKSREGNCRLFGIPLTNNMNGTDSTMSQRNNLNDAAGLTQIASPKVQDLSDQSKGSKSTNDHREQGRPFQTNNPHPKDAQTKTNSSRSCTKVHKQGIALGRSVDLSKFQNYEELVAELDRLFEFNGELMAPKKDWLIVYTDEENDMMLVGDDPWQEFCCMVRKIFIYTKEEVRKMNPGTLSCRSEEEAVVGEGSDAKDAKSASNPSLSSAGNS
Chain of UniProt Q15831 (whole entry, looked up): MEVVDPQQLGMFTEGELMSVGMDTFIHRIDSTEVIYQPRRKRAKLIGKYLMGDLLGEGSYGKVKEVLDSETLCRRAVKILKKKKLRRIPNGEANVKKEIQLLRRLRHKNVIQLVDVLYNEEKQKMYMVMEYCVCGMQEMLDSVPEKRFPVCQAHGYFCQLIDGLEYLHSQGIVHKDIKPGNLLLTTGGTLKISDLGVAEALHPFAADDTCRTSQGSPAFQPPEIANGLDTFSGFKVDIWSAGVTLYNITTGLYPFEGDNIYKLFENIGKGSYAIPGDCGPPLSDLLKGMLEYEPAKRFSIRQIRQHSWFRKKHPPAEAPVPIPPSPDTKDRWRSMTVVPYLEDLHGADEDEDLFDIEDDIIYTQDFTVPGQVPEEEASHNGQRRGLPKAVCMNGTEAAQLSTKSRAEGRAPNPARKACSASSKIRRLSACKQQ
Chain of UniProt Q8RYC6 (whole entry, looked up): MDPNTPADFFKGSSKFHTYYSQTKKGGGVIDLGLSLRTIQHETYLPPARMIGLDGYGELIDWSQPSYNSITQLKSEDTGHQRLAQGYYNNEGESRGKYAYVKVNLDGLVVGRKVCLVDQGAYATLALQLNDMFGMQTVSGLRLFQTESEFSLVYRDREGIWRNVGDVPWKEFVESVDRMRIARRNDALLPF
Chain of UniProt P00519 (whole entry, unmodified, looked up): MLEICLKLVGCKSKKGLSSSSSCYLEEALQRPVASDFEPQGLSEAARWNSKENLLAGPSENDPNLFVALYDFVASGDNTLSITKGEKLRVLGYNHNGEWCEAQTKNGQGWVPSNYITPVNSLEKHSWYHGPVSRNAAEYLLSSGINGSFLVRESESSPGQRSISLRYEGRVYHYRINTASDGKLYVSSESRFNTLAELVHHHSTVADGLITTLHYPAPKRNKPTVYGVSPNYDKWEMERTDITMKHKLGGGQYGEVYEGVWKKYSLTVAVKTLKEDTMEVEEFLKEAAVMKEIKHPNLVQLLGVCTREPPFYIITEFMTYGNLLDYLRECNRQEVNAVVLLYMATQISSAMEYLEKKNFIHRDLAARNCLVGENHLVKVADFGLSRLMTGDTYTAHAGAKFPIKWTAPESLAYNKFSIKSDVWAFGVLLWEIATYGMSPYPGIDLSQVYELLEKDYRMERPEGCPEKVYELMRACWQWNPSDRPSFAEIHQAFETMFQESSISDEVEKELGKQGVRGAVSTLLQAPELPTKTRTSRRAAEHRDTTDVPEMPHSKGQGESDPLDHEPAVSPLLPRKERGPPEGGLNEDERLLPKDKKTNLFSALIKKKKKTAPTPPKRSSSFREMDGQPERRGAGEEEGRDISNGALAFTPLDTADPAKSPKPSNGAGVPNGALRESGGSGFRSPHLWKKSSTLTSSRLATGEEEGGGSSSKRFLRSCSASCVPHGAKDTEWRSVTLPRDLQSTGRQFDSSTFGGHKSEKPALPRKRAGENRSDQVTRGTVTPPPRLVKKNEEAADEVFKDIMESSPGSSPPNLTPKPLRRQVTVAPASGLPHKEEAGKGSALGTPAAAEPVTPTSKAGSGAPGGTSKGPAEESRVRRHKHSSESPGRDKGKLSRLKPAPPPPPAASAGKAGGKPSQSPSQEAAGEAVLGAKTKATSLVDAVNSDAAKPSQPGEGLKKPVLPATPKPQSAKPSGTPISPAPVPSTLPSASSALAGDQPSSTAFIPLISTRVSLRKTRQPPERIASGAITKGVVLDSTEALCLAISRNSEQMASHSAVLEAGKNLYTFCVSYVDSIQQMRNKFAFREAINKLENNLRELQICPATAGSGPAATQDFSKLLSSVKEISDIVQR
Chain of UniProt Q9UIK4 (whole entry, looked up): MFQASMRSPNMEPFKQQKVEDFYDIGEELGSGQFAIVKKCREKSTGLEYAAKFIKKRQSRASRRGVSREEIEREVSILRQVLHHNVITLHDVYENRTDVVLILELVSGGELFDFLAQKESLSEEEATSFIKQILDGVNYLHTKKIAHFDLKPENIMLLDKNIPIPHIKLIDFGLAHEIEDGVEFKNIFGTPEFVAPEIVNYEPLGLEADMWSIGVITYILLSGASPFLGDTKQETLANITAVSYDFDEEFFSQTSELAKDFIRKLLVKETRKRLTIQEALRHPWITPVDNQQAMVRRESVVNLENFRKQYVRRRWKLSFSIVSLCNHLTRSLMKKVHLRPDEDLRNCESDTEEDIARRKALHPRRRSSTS

Series 1 — read-out: enzyme activity; mode: inhibitor; tested at: 0.5 µM; baseline: control
Structure (SMILES): O=Nc1c(-c2c(O)[nH]c3cc(Br)ccc23)[nH]c2ccccc12
It gave 70.1% for remaining activity (CAMKK2 (Homo sapiens, UniProt Q96RR4)).
CAMK2D (Homo sapiens, UniProt Q13557) — remaining activity: 23%.
For DAPK1 (Homo sapiens, UniProt P53355): remaining activity read 90%.
CHEK2 (Homo sapiens, UniProt O96017) — remaining activity: 48.3%.
It gave 85.4% for remaining activity (IKBKB (Homo sapiens, UniProt O14920)).
For Cyclin-dependent kinase 5, with p25 (CDK5, Homo sapiens, UniProt Q00535): remaining activity read 20.4%.
For STK10 (Homo sapiens, UniProt O94804): remaining activity read 52.8%.
It gave 104% for remaining activity (GRK3 (Homo sapiens, UniProt P35626)).
NEK2 (Homo sapiens, UniProt P51955) — remaining activity: 95.5%.
IKBKE (Homo sapiens, UniProt Q14164) — remaining activity: 66.3%.
MAPK9 (Homo sapiens, UniProt P45984) — remaining activity: 80.3%.
For OXSR1 (Homo sapiens, UniProt O95747): remaining activity read 100%.
TGFBR1 (Homo sapiens, UniProt P36897) — remaining activity: 99.8%.
It gave 14.7% for remaining activity (Tyrosine-protein kinase Lyn, isoform B (LYN, Homo sapiens, UniProt P07948)).
It gave 104% for remaining activity (STK39 (Homo sapiens, UniProt Q9UEW8)).
The remaining activity was 42.1% (STK11 (Homo sapiens, UniProt Q15831)).
It gave 106% for remaining activity (PRKACA (Homo sapiens, UniProt P17612)).
DAPK2 (Homo sapiens, UniProt Q9UIK4) — remaining activity: 91%.
The remaining activity was 93.4% (Cyclin-dependent kinase 4, with cyclin D1 (CDK4, Homo sapiens, UniProt P11802)).
It gave 107% for remaining activity (MAP3K3 (Homo sapiens, UniProt Q99759)).
For TGFBR2 (Homo sapiens, UniProt P37173): remaining activity read 106%.
For cGMP-dependent protein kinase 1, isoform beta (PRKG1, Homo sapiens, UniProt Q13976): remaining activity read 93.6%.
It gave 98.5% for remaining activity (Protein kinase C beta type, isoform beta-I (PRKCB, Homo sapiens, UniProt P05771)).

Series 2 — technique: competition protein-binding microarray; molecule type: double-stranded DNA, one strand shown; matrix: in vitro; tested at: 2 µM; added: Cbf1 competitor, 0.05 µM; reading: higher = stronger binding
Target: Phosphate system positive regulatory protein PHO4, full length, GST-tagged (PHO4, Saccharomyces cerevisiae, UniProt P07270, residues 1-312)
Notes: whole 60-bp probe, lowest competitor level
Target sequence (chain): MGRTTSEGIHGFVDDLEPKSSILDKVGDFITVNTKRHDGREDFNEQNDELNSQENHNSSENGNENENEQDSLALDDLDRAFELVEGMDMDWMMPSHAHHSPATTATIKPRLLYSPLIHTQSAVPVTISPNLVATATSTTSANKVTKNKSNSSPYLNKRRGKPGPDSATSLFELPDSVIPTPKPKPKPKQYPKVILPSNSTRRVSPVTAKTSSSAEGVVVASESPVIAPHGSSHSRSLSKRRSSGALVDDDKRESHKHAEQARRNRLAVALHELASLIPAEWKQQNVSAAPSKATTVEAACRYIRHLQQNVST
`TTCCAACTGTTTTTGCACGCAAATTCGTCCAACCGGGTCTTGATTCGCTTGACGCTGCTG` gave a fluorescence intensity of 4380 a.u.
With `AAAGCGGTAATTTTTCACGTGGCCTCACATATCTATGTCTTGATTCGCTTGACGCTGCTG` the fluorescence intensity was 15400 a.u.
The fluorescence intensity of `CGTCCTAGTGATTGTCACCTAACTTCCATGAGGAAGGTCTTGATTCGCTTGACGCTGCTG` is reported as 3990 a.u.
For `GAGCGACTCAGGACGCGCGTGTGTTATTTTGGCCCCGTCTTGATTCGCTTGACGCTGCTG`, the fluorescence intensity was 8740 a.u.
The fluorescence intensity of `CGGGGTTAAGTTTGAAGAGTGGGTGGCTTGCAGCAGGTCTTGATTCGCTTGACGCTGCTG` is reported as 3880 a.u.
`AAAGCGGTAATTTTTCACGTGACCTCACATATCTATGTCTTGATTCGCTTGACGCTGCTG` has a fluorescence intensity of 9710 a.u.
`GTATTCTCGGATCGGCACGCAAGCGCAATGCTGAGAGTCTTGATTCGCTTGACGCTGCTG` gave a fluorescence intensity of 7890 a.u.
`GAAGCGTACGCCCATCACGTGACGGAAGTTGCAATGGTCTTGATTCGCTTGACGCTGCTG` gave a fluorescence intensity of 13000 a.u.

Series 3 — Sequence: B1 (IAA7); technique: two-hybrid; baseline: out of 4 tests; reading: higher = firmer interaction
B1: IAA7 (Arabidopsis thaliana, UniProt Q38825); chain MIGQLMNLKATELCLGLPGGAEAVESPAKSAVGSKRGFSETVDLMLNLQSNKEGSVDLKNVSAVPKEKTTLKDPSKPPAKAQVVGWPPVRNYRKNMMTQQKTSSGAEEASSEKAGNFGGGAAGAGLVKVSMDGAPYLRKVDLKMYKSYQDLSDALAKMFSSFTMGNYGAQGMIDFMNESKLMNLLNSSEYVPSYEDKDGDWMLVGDVPWEMFVESCKRLRIMKGSEAVGLAPRAMEKYCKNRS
It gave 3 for positive tests (IAA32 (Arabidopsis thaliana, UniProt Q8RYC6)).
For ARF2 727-859 (Arabidopsis thaliana, UniProt Q94JM3): positive tests read 1.
IAA29 (Arabidopsis thaliana, UniProt Q93WC4) — positive tests: 0.
IAA10 (Arabidopsis thaliana, UniProt Q38828) — positive tests: 3.

Series 4 — read-out: cell-free assay; technique: competition with immobilised ligand; tested at: 1 µM
SMILES: CCC(=O)N[C@H]1CC[C@@H](C(=O)N(C)c2ccc(-c3nc4ccccc4o3)cc2)C1
PRKG1 (Homo sapiens, UniProt Q13976) — remaining binding: 100%.
The remaining binding was 79% (EPHA4 (Homo sapiens, UniProt P54764)).
The remaining binding was 89% (MAP2K1 (Homo sapiens, UniProt Q02750)).
CAMK1G (Homo sapiens, UniProt Q96NX5) — remaining binding: 100%.
Tyrosine-protein kinase ABL1, non-phosphorylated (ABL1, Homo sapiens, UniProt P00519, F317L) — remaining binding: 86%.

Series 5 — technique: protein-binding microarray; molecule type: hairpin DNA; matrix: in vitro; tested at: not given; baseline: not given; reading: higher = stronger binding
Target: Cellular tumor antigen p53, full length (TP53, Homo sapiens, UniProt P04637, residues 1-393)
Notes: whole hairpin DNA, median over replicate spots
`CGGACATTCCCGGGCATGTCTCCTGACATGCCCGGGAATGTCCGACACTC` gave a median fluorescence of 10700 a.u.
The median fluorescence of `CCACACGTGCTGGCATGCCTTCCTAGGCATGCCAGCACGTGTGGACACTC (5mC at 10)` is reported as 6940 a.u.
The median fluorescence of `CCACGCGTGGTGGCATGCCTTCCTAGGCATGCCACCACGCGTGGACACTC` is reported as 7700 a.u.
`CGGACATGCCCGGACATGTCTCCTGACATGTCCGGGCATGTCCGACACTC` gave a median fluorescence of 20300 a.u.
The median fluorescence of `CGGACATCGCCGGGCATGTCTCCTGACATGCCCGGCGATGTCCGACACTC` is reported as 11700 a.u.
The median fluorescence of `CCACAAGTGGTGGCATGCCTTCCTAGGCATGCCACCACTTGTGGACACTC` is reported as 7780 a.u.
`CGGACTTGCCCGGGCATGTCTCCTGACATGCCCGGGCAAGTCCGACACTC` gave a median fluorescence of 15900 a.u.
With `CCACACGGGGTGGCATGCCTTCCTAGGCATGCCACCCCGTGTGGACACTC (5mC at 37)` the median fluorescence was 6230 a.u.

Further values, each from its own experiment — technique: cross-linking MS; matrix: cell fractions; added: DSSO
`ITGB1 (Homo sapiens, UniProt P05556)` — result for cross-linked residues: “K202 to K144” (ITGA6 (Homo sapiens, UniProt P23229)).
Under cross-linked residues, `TCP1 (Homo sapiens, UniProt P17987)` is recorded as “K126 to K55” (CCT4 (Homo sapiens, UniProt P50991)).

Repeated from above (series 4):
PRKG1 (Homo sapiens, UniProt Q13976) — remaining binding: 100%.
The remaining binding was 79% (EPHA4 (Homo sapiens, UniProt P54764)).
The remaining binding was 89% (MAP2K1 (Homo sapiens, UniProt Q02750)).
CAMK1G (Homo sapiens, UniProt Q96NX5) — remaining binding: 100%.
Tyrosine-protein kinase ABL1, non-phosphorylated (ABL1, Homo sapiens, UniProt P00519, F317L) — remaining binding: 86%.
